Experimental data pooled from the literature.
Parts stem from different laboratories: compare values within a part only. Positions count from the first letter of the parent shown.

Sample 1
Target: Histone acetyltransferase KAT6A, winged helix 2, GST fusion (KAT6A, Homo sapiens, UniProt Q92794, residues 85-181)
Method: protein binding microarray
Form: double-stranded DNA, one strand shown
Matrix: in vitro
Concentration: not given
Notes: 8-mer, flanks averaged, mean of 2 arrays, mostly near background
Relative to: not given
Direction: higher = stronger binding
Measurement: E-score
Target sequence (chain): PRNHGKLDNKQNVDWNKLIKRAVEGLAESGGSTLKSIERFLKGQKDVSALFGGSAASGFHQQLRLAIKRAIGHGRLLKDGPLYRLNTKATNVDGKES
Strand = ACCTGCCC; result = 0.181
Strand = AAGCGTTC; result = -0.0848
Strand = CGCGTGGA; result = -0.016
Strand = AAGTCTTA; result = -0.247
Strand = AAGGTACG; result = -0.159
Strand = ATGGTTTA; result = -0.0444
Strand = CCCGTACG; result = 0.0458
Strand = CTACTAAC; result = 0.137
Strand = ATCAGCAA; result = 0.188
Strand = ACGCTCGG; result = 0.051
Strand = AGAGCTAT; result = -0.168
Strand = AGAAACCA; result = 0.0559
Strand = TAGTACGA; result = -0.121
Strand = CAAGCTAG; result = 0.106
Strand = TGCTTGAA; result = 0.19
Strand = ATCGAAGA; result = 0.134
Strand = AGGTTTGG; result = -0.0151
Strand = AAGGCAAC; result = 0.185

Sample 2
Target: ABI1, truncated, D143A, DHFR fusion (Arabidopsis thaliana)
Method: DHFR PCA, deep sequencing
Matrix: yeast
Notes: methotrexate growth selection, single substitutions
Added: (+)-ABA 0.0091 µM
Relative to: wild-type fitted maximum
Direction: higher = stronger binding
Measurement: relative binding score
Parent: PYL1, truncated, DHFR fusion (Arabidopsis thaliana); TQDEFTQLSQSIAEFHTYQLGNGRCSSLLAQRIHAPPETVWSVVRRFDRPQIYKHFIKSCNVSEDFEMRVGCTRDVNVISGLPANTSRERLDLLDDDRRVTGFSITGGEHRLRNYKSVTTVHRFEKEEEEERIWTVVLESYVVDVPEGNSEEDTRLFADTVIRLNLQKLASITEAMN; partner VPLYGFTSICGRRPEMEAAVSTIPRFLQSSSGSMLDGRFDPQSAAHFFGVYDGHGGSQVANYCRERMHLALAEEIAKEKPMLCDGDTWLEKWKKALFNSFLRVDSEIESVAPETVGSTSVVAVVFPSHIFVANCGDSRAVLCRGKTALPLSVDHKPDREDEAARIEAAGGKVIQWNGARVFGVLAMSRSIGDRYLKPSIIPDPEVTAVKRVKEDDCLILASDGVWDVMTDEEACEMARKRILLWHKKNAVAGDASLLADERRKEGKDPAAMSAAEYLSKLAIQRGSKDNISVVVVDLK
Variant = L166A; result = -1.03%
Variant = H16P; result = 1.25%
Variant = R49L; result = 0.449%
Variant = D96R; result = -4.09%
Variant = V40R; result = -2.07%
Variant = R24W; result = 2.55%
Variant = Q10W; result = 2.44%
Variant = D65S; result = 8.5%
Variant = E129M; result = 4.52%
Variant = K126W; result = 10.1%
Variant = Q19V; result = 18.2%
Variant = I162A; result = 1.85%

Sample 3
Target: FOSL2, bZIP domain (human)
Method: DHFR protein complementation
Matrix: yeast
Notes: single substitutions, most at no-binding floor
Relative to: wild-type JUN-FOS pair
Direction: higher = stronger binding
Measurement: binding fitness
Parent: JUN, bZIP domain (human); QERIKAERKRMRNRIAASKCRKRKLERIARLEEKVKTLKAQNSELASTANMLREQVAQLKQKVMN; partner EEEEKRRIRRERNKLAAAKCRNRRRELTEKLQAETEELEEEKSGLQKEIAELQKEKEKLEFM
Variant = Q55E; result = 0.0413 natural log
Variant = V35S; result = -0.362 natural log
Variant = L38A; result = -0.394 natural log
Variant = Q41H; result = -0.0833 natural log
Variant = I28M; result = -0.0298 natural log
Variant = N42L; result = 0.0333 natural log
Variant = I28E; result = -0.0317 natural log
Variant = L31I; result = -0.158 natural log
Variant = E44F; result = -0.118 natural log
Variant = L45G; result = -1.38 natural log
Variant = S47E; result = 0.177 natural log
Variant = A49E; result = -0.531 natural log
Variant = K34C; result = -0.0259 natural log
Variant = E44H; result = 0.02 natural log
Variant = K39D; result = -0.817 natural log
Variant = K34A; result = 0.0381 natural log
Variant = T48P; result = -1.22 natural log
Variant = I28T; result = -0.0615 natural log
Variant = R53W; result = -0.81 natural log

Sample 4
Target: UBE2J1 UBC core domain (UniProt Q9Y385)
Method: yeast two-hybrid
Matrix: yeast
Notes: mostly zero background
Relative to: not given
Direction: higher = stronger interaction
Measurement: lacZ reporter activity
B1: RNF122 RING domain (UniProt Q9H9V4); chain AKKLQLYGQTCAVCLEDFKGKDELGVLPCQHAFHRKCLVKWLEVRCVCPMCNKPIASPSEAT
B2: RLIM RING domain (UniProt Q9NVW2); chain SFGENDALKTCSVCITEYTEGNKLRKLPCSHEYHVHCIDRWLSENSTCPICRRAVLASGNRE
Construct (chain): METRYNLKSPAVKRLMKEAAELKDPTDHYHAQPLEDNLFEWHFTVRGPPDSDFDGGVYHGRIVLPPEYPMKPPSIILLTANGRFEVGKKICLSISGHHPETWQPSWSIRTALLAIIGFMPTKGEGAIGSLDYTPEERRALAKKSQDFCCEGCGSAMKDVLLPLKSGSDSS
Sequence = B1 (RNF122 RING domain); result = 0
Sequence = PEELAVNNDDCAICWDSMQAARKLPCGHLFHNSCLRSWLEQDTSCPTCRMSLNIADNNR (AMFR RING domain (UniProt Q9UKV5)); result = 0
Sequence = MNDVLENELQCIICSEYFIEAVTLNCAHSFCSYCINEWMKRKIECPICRKDIKSKTYSL (RNF8 RING domain (UniProt O76064)); result = 0
Sequence = FVKTVEDKYKCEKCHLVLCSPKQTECGHRFCESCMAALLSSSSPKCTACQESIVKDKVF (TRAF3 RING domain (UniProt Q13114)); result = 0
Sequence = B2 (RLIM RING domain); result = 0
Sequence = YPEEVDDDLICHICLQALLDPLDTPCGHTYCTLCLTNFLVEKDFCPMDRKPLVLQHCKK (LNX1 RING domain (UniProt Q8TBB1)); result = 0

Sample 5
Target: RNA binding protein fox-1 homolog 2, RRM domain, GST-SBP tag (RBFOX2, Homo sapiens, UniProt O43251-10, residues 100-194)
Method: RNA Bind-n-Seq
Form: RNA
Matrix: in vitro
Concentration: 365 nM
Notes: natural RNA segment, single round, ends assumed
Relative to: no-protein control
Direction: higher = stronger binding
Measurement: RBNS enrichment (R)
Target sequence (chain): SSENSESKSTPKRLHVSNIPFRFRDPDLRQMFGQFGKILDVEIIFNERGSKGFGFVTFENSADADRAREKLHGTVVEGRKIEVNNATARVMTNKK
Strand = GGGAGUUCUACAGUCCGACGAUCUGGGGCUUAGAGUCCGUGCAGGUGGGGAUAUGGGUAAAUCUAGGAGAACUCACAGAUCUUUAUAUGAGGACAGUGCUGAGGACUUUCUCAUGGCUCCAUCCUUUUGGUCCUGGAAUUCUCGGGUGCCAA; result = 0.464
Strand = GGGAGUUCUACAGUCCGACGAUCUGUGGGUAUGGCUAAUGAGUUCUGAUUCACCCACGAAGGUUACAUUUAUGCUGAAUACAUUUGUAAAUACUCAGUUUUAUACUGUAUGUAUAUGAUUGCUACUCUAAAGGUGGAAUUCUCGGGUGCCAA; result = 0.495
Strand = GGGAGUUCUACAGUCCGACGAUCCCCACAUCUCAGCGCUUUCCCCUUUUUUACCACUUAGACUUAAAGCAGGUGUCUUAAUUUACUCAACCUUCCCUAAAAGAGAAUUGUAUUGGGGCAGGAGGGAUCGCAGUUGGAAUUCUCGGGUGCCAA; result = 0.688
Strand = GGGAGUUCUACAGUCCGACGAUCAUCCUCCUGGCUUCUUACAGAAGAACUGUUGCAGAGUUCACAGCACAGAUGGGCAGAGAUGGUCCCCACAGCUUCAGCCCAUCAUCAUCCCCAGAGGCCGAGCAGGGAGGUGGAAUUCUCGGGUGCCAA; result = 0.516
Strand = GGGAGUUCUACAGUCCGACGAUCAGCCAGGAUUCUGGCCCAGGGCGCCUCCUCCCGACUGAGCAGAGCCAGACAGACAUUCCUGAGGGGCCCAGAAAUGGGGCCGGUUGGAGGGCAGGGGCUCUCCCUAGGGGUGGAAUUCUCGGGUGCCAA; result = 0.384
Strand = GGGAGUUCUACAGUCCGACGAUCCGACUUUCUGCCUGGAGUGUAUGACUGCACAUGACUCGGGGGUGGGGAAAGGGGUCGGCUGACCAUGCUCAUCUGCUGGUCCGUGGGACGGUGCCCAAGCCAGAGGCUGGUGGAAUUCUCGGGUGCCAA; result = 0.662
Strand = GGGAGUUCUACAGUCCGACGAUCCCGGCUAAAGUUGCAGCUGUUGUAUCUGGUUUCUGUGAGUCCUGCACCAAGUUCAGCCCAAAAUGAUAUUCUUUUCAGUCCUGUGGGGGAAGGACCGGCUUUAUCUCAUGUGGAAUUCUCGGGUGCCAA; result = 1.23
Strand = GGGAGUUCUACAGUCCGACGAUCGAUCAGGCUGUUGCCAUGGAAGUUCAGGGCCAUAGACUGCCCCACUUAAACUCUUGUCAGUCUGGGCUCAGGGUUCCCAGAGCUCAUUCCCCAGGAAUCUCUAAGACCAGUGGAAUUCUCGGGUGCCAA; result = 0.19

Some of these lines once more (sample 1):
Strand = CTACTAAC; result = 0.137
Strand = ATCAGCAA; result = 0.188
Strand = ACGCTCGG; result = 0.051
Strand = AGAGCTAT; result = -0.168
